Measured values from different studies.
Parts stem from different laboratories: compare values within a part only. Substitutions count along the parent as printed.

Block 1 — target: CCNB2, cyclin fold, Cln2 fusion (human); method: yeast growth competition, sequencing; medium: yeast; notes: weak parent motif; baseline: not given; reading: higher = stronger binding
Parent: viral docking peptide; KGVKRKLFAEDSS; partner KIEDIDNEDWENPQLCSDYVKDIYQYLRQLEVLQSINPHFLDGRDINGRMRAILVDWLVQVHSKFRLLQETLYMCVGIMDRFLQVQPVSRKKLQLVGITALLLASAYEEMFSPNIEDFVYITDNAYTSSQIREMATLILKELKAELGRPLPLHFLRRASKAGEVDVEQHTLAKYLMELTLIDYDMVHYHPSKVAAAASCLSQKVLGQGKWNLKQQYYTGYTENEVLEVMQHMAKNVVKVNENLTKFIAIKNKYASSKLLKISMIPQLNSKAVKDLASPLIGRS
`G2M`: “normalised enrichment score” 0.497.
`K4S`: “normalised enrichment score” 0.537.
Under “normalised enrichment score”, `K6I` is recorded as 0.548.
`D11G` — result for “normalised enrichment score”: 0.904.
Under “normalised enrichment score”, `D11W` is recorded as 1.16.
For `E10T`, “normalised enrichment score” read 0.749.
For `R5W`, “normalised enrichment score” read 0.274.
Under “normalised enrichment score”, `V3F` is recorded as 0.255.
`G2L`: “normalised enrichment score” 0.441.
`L7E`: “normalised enrichment score” 0.639.
Under “normalised enrichment score”, `K4T` is recorded as 0.236.
`A9W`: “normalised enrichment score” 0.332.
Under “normalised enrichment score”, `R5Q` is recorded as 0.666.
`D11F`: “normalised enrichment score” 1.58.
`F8Y` — result for “normalised enrichment score”: 0.0559.
`E10A`: “normalised enrichment score” 0.893.

Block 2 — observed: peptide-MHC binding; form: peptide; concentration: concentration not given
Target: HLA class I histocompatibility antigen, C alpha chain, allele C*04:01 (Homo sapiens, UniProt P10321)
Under binding, `SMNYPNSYK` is recorded as “inactive”.
Under binding, `RYRTAVCGL` is recorded as “inactive”.
For `IFDDLQGSL`, binding read “active”.
`FTFKVNSVK`: binding “inactive”.
`RFFKHFMSL` — result for binding: “inactive”.

Block 3 — method: RNA Bind-n-Seq; form: RNA; medium: in vitro; concentration: 365 nM; baseline: no-protein control; reading: higher = stronger binding
Target: RNA binding protein fox-1 homolog 2, RRM domain, GST-SBP tag (RBFOX2, Homo sapiens, UniProt O43251-10, residues 100-194)
Notes: natural RNA segment, single round, ends assumed
Residues (chain): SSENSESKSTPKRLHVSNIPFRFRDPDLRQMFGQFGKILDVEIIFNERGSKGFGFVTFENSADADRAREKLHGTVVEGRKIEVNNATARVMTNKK
`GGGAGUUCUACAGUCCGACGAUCCUUUUUUUUUCUUUUGAGACAGGGUCUUGAUCCGUCGCCCAGGCGGGAGUUGCAGUAGCAUGAUCAGGACUCACUGCAGCCUCUAUCUCCCAGGCUCAAGUAAUCCUCCCUGGAAUUCUCGGGUGCCAA`: “RBNS enrichment (R)” 3.89.
`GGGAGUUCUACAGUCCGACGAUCUUACAAUUGGCUUGUAUGAGAAGAAAAAGUAUUUUUAUUGUUUUGAGUGAUGACGCAGAGACUCAGUGAACUUGAAAAUAGCAUUGCUUCGUGCACUUUGAAUACCAAUCUGGAAUUCUCGGGUGCCAA` — result for “RBNS enrichment (R)”: 1.24.
`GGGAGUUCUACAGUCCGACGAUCGGGUUGUGUUGGAUGGGAUGAUCUGUUGCAGAGGGAGAGGCAGGGAACCCUGCUCCUUCGGGCCCCAGGUUGAUCCUGUGACUGAGGCUCCCCCUCAUGUAGCCUCCCCAUGGAAUUCUCGGGUGCCAA`: “RBNS enrichment (R)” 0.501.
Under “RBNS enrichment (R)”, `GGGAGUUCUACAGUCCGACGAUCGCCAAGGUAGGGGUGGUCUCAGACCCUCCUGGGUCCCCUGACCAUACAGGGCCUGGUGGUCUGCUCCAUCUGGCCCCUGGCCCAUCUCUUCUGUGCCUUAGUCACAUAUGUGGAAUUCUCGGGUGCCAA` is recorded as 0.202.
`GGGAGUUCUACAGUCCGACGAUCCCAGCCCCAGCCUCAGGGACGGGGAGGGAGAGCCCCCUCUGGGCCCAGCAGGCAGGUGUUCUGAGGCUGGUCCCUCCUCAGUUUCCGCAGCCACAAGGCGAAACGGCCAGUGGAAUUCUCGGGUGCCAA` — result for “RBNS enrichment (R)”: 0.322.
`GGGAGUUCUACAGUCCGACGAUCUCUGAGCGCCUCCAUCCAAGGCCAGGUUCUCCGUUAGCUCCUGUGGCCCCACCCUGGGCCCUGGGCUGGAAUCAGGAAUAUUUUCCAAAGAGUGAUAGUCUUUUGCUUUUUGGAAUUCUCGGGUGCCAA`: “RBNS enrichment (R)” 0.196.
Under “RBNS enrichment (R)”, `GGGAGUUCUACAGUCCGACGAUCGCCCACGAUAGACCAGCUGUAGCUCAUUCCAGCCUGUACCUUGGAUGAGGGGUAGCCUCCCACUGCAUCCCAUCCUGAAUAUCCUUUGCAACUCCCCAAGAGUGCUUAUUUGGAAUUCUCGGGUGCCAA` is recorded as 0.659.
Under “RBNS enrichment (R)”, `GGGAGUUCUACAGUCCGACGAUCAAAUCAUGCUGCCAUGGGUCACACUGGCCUCUCAGGCCCACCCGUCACGGGGAACACACAGCGUUAAGUGUCUUUCCUUUAUUUUUUAAAGAAUCAAUAGCAGCAUCUAAUGGAAUUCUCGGGUGCCAA` is recorded as 0.311.

Block 4 — method: RNA Bind-n-Seq; form: RNA; medium: in vitro; concentration: not given; notes: RNA with constant flanks, ends assumed; baseline: input RNA pool; reading: higher = stronger binding
Target: RING finger protein unkempt homolog, zinc fingers 1-6, GST-SBP tag (UNK, Homo sapiens, UniProt Q9C0B0, residues 30-357)
UniProt Q9C0B0, sequence (30-357, looked up): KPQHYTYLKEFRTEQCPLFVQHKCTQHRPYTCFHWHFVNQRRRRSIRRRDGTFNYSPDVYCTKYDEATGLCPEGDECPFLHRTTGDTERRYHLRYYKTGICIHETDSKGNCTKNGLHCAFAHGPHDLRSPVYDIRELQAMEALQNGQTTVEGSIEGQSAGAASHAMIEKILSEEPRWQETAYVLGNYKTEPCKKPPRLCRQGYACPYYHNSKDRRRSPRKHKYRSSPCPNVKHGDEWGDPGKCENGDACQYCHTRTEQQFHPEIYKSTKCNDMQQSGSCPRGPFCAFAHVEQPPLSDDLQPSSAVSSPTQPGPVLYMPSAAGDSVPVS
With `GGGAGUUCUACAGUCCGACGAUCUCUGGUCUCCUUGGAGAAAGGUUCUGUUGCCCUGAUUUAUGAACUCUAUAAUAGAGUAUACCGGUUUUGUACCUUUUUUACAGGAAGGUGACUUUCUGUAACAAUGCGAUGUAUAUUAAACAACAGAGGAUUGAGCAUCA` the bound/input enrichment was 0.427 ratio.
With `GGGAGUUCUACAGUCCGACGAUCCUGAGGAACAAUCUCCGCAGCAUAGAGUGGGAUCUGGAGGACCUCGAUGAAACCAUCAGCACCGUUGAAGCAAAUCCUAGAAAAUUCAACUUGGAUGCAACUGAAUUGAGCAUAAGAAAACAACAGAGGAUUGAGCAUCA` the bound/input enrichment was 0.302 ratio.
`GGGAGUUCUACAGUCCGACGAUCUGAUAUAUAAACCUUAAGUGAAAUGAAAGAAAAAGAUCUAUUGCAGAUAUCUGAUGGAUGCCGUUUUCUUUUUUUAAAUUAGAAAUGCCACUUCUAUUGUAUUGUCUCACACAUGCUCUACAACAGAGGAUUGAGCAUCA` has a bound/input enrichment of 1.45 ratio.
`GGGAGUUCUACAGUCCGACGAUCGGUCCUGGCCCCUUACAAGAGAGAUCUCUCUUUGAGAAAAAGAGGGGCGCUCCUCCAAGCCGCAAUAUUGAAGACUUCCAUGGACUCUUACCGAAGGGUUAUCCCCAUCUGUGCUCUAUACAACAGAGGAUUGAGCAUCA` gave a bound/input enrichment of 0.149 ratio.
`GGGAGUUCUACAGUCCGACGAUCGCUGAUUUUGAGAAGGUUUUCUCUAUUGGACCAGUAUUCAGAGCGGAAGACUCUAAUACCCACCGACAUCUAACUGAGUUUGUUGGUUUGGACAUUGAAAUGGCUUUUAAUUACCAUUACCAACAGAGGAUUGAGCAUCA` gave a bound/input enrichment of 0.116 ratio.
The bound/input enrichment of `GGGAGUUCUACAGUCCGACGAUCAUUCCAUAUUUAUUACGGCUGAGACAAGUUAAGGAUGAAACUCUUCAGGCUGCAGUCCGAGAAAUUUUGGCUUUAAUUGGUUAUGUAGAUCCAGUGAAAGGCAGAGGAAUCCGAAUCCUCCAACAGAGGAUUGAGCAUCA` is reported as 0.11 ratio.
`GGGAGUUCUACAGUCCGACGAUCAAAUACUUAGCACAGUUACUAAACAGUGUACGAUUACCAUUGUUGAGUGUUAAGUUUCUCACCCGACUAUAUGAAGCAAAUCAUCUUAUUCGUGAUGAUCGCACUUGUAAACAUCUUUUGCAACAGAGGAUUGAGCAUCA` has a bound/input enrichment of 0.12 ratio.
For `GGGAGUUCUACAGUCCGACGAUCUAACUAAGUGGGCUGUUCAGAAGCUUAGAGGUCAUUUUUUGUAAUUUUCUUUUUAAUUACUUCCGAGAGCUAGGGAUGCAAAUGUUUUCAGUUAGAAAGCCUUUAUUUACUUUUGGAAAUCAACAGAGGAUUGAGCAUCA`, the bound/input enrichment was 3.02 ratio.

Excerpt of the above (block 1):
For `E10T`, “normalised enrichment score” read 0.749.
For `R5W`, “normalised enrichment score” read 0.274.
Under “normalised enrichment score”, `V3F` is recorded as 0.255.
`G2L`: “normalised enrichment score” 0.441.
`L7E`: “normalised enrichment score” 0.639.
